Published values collected from several papers.
Numbered parts are unrelated; each lists some results of a single study.
Chain of UniProt P41743 (whole entry, looked up): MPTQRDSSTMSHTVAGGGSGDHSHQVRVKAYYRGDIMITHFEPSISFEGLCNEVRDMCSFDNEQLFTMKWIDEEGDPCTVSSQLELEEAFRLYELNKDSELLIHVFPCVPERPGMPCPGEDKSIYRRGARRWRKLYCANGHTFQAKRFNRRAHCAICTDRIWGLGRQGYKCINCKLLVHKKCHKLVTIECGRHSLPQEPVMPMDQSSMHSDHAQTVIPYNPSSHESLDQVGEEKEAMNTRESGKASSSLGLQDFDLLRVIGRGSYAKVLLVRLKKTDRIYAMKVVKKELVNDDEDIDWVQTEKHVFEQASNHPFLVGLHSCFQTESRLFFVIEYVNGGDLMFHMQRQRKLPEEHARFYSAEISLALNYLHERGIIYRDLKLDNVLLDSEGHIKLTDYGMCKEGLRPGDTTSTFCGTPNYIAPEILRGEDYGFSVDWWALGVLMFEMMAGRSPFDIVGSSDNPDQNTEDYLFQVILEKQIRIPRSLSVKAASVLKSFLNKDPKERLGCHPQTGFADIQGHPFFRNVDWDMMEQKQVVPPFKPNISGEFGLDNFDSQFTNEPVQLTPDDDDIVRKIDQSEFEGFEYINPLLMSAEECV

Sample 1 — method: RNA Bind-n-Seq; form: RNA; matrix: in vitro; tested at: 365 nM; reference: no-protein control; reading: higher = stronger binding
Target: RNA binding protein fox-1 homolog 2, RRM domain, GST-SBP tag (RBFOX2, Homo sapiens, UniProt O43251-10, residues 100-194)
Setting: natural RNA segment, single round, ends assumed
Shared flanks, not repeated: GGGAGUUCUACAGUCCGACGAUC … UGGAAUUCUCGGGUGCCAA
Construct (chain): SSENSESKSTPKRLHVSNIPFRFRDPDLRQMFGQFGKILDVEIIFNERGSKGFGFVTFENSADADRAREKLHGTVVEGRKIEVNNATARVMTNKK
Oligonucleotide	RBNS enrichment (R)
CUGUCCAUCCAGCAUCUUAAUCACUUUAAAACUGUGAUUGUUAUUUGCAACUCUGUUCUUUGGAAAGAAUAAAAGCAUUUUUUUUCACUUGCUAACAUGCUCACAAAUGU	0.576
UGGGAAGAAGUGGAGUUUUUUGGUUAUUAGGUUAAUUUUCUAGUAAAACACGUUGCCUGUUUUCAGUUAACACUGGUAAUGCCAUUUUAAUAUAUGGCUUUUUCAAAUCA	0.388
CAAAAUAACGCCCCAGAUACCAGCCCCUGUAUGGCACUGGCAUUGUCCCUGUGCCUAACACCAGCGUUUGAGGGGCUGGCCUUCCUGCCCUACAGAGGUCUCUGCCGGCU	0.209
GGGAAGUAUCAGGUUCUGGGAGGCAACAGCAUUAAGUGAUAAGAAAAGGAGACAUUCUGGCAAAGCCAAUCUGCUUAAAGGCAAAGUCCAGAACCUGGAACCUAGAGGCC	0.656
GCCGCUGCAGGCCAUUGUACACAAACUGGUUGUAUGUAUCAGACUGCAGAUGGGAGGAGCAGUGGUGCCUCAAGUCUGCACAUGCUCUGCUUCUAGAAGACUGACUGUGG	0.483
AGGCCCUGUGUGACAACAGUAAGAGCUGGGUUUUGUUAUUCUCUAGAAUGGCUCCAGCUGUGGGUGUGCACAAUGAGGGAGGAACUGCUUUCCCCCUUACUGUCAUUGGU	0.286
AGGCCCAUGGCAUUGUGGUGACGGAUGUGGCCUUUCUACCUGAGAAGGGUCGUGGUCCAGAGCUCCUUGGGUCCCAUGAAACUGCCCUGUUCUCUGUGGCUGUGGACAGU	0.346
UAUUCUCACGGGCAGUAGCUGUGGUGAGGUGGGUUUUCUUCCCAUCACUGGAGCACCAGGCACGAACCCACCUGCUGAGAGACCCAAGGAGGAAAAACAGACAAAAACAG	0.46

Sample 2 — method: protein-binding microarray; form: double-stranded DNA, one strand shown; matrix: in vitro; tested at: 250 nM; setting: 60-bp whole probe; added: salmon DNA 0.4 mg/ml; reference: random background probes; reading: higher = stronger binding; shared flanks, not repeated: GCCTAGCAC … GTCTTGATTCGCTTGACGCTGCTG
Target: Interferon regulatory factor 7, full length, phosphomimetic (IRF7, Homo sapiens, UniProt Q92985, residues 1-503, S101K/S471D/S472D/S475D/S476D/S477D/S483D/S484D/S487D)
Chain of UniProt Q92985 (whole entry, unmodified, looked up): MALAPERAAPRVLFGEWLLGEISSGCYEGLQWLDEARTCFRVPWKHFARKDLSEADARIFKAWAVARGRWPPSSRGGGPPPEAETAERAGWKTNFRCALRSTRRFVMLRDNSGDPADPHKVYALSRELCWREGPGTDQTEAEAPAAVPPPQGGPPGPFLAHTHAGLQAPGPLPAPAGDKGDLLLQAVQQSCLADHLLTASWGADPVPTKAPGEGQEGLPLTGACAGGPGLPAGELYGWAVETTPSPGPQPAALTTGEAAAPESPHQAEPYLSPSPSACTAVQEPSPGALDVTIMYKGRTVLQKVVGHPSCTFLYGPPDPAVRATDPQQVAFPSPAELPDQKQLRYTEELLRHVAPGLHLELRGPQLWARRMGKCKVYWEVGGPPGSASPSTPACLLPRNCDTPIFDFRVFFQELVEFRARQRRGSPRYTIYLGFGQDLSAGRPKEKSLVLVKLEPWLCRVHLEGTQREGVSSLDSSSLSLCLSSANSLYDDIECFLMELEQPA
Oligonucleotide	log fluorescence [z-score]
TTAGGACTGCTTTTCCGTTAGTGCTAG	1.03
TCAAGAATGTTTTTCATACTGTGCTAG	-0.0556
GACGGTATCGGGATTCGGGACGTGCTA	0.833
GACGATATCGGGACTGCAGACGTGCTA	-0.497
GACAATTTCAGACTGGAGACGTGCTAG	0.0184
CTGGTCCTCCTGACTGGGGTGGTGCTA	-0.106
GACGAAGTGGGGTTTCGAGACGTGCTA	1.7
TTAGGACTGGGCTTTCGGTTAGTGCTA	0.07

Sample 3 — method: protein-binding microarray; form: double-stranded DNA, one strand shown; matrix: in vitro; tested at: not given; reading: higher = stronger binding
Target: Protein max, full length (MAX, Homo sapiens, UniProt P61244-2, residues 1-151)
Setting: k-mer, scored over probes, only values ≥0.25
Oligonucleotide	E-score
GAGCACGC	0.438
CGATCACA	0.284
GTGCGCCA	0.258
CGTGGAGA	0.37
ACATGGGT	0.322
CACGATGG	0.3
CCGTGCAC	0.337
ACATGGGA	0.363

Single results of other studies
Compound	target	read-out	mode	tested at	reference	endpoint	value
N#C/C(=C\c1ccc(O)c(O)c1)C(=O)NCc1ccccc1	Protein kinase C iota type (PRKCI, Homo sapiens, UniProt P41743)	enzyme activity	inhibitor	0.5 µM	control	remaining activity	96.4%
